Measurements pooled from the literature.
Lines come from different studies, so protocols differ.

SMILES	test	test system	setting	tmax
CN(C(=O)C(C)(C)c1cc(C(F)(F)F)cc(C(F)(F)F)c1)c1cnc(N2C[C@H]3COCCN3C[C@H]2CO)cc1-c1ccc(F)cc1[14CH3]	item: total radioactivity	human, plasma	oral, 120 mg	1.5 h
CC(=O)c1cc(C(=O)N[C@@H](C)Cn2ccc(-c3ccc(C#N)c(Cl)c3)n2)[nH]n1	–	healthy male human, plasma	intravenous infusion, 100 µg 14C-labelled, 15 min infusion, microtracer, median	0.5 h
N#Cc1ccc2c(c1)[C@H]1CCCN(C(=O)c3ccc4[nH]cnc4c3)[C@H]1C2	–	human, plasma	oral, 80 mg once daily, after first dose, median	1 h
O=C(Nc1cnccc1Cl)N1CCN(Cc2ccc3c(c2)OC(F)(F)O3)CC1	–	human healthy young men, plasma	oral, 75 mg once daily, day 1, multiple dose median	1.25 h
C[C@@H](Cn1ccc(-c2ccc(C#N)c(Cl)c2)n1)NC(=O)c1cc([C@@H](C)O)[nH]n1	–	human, fasted	oral, 300 mg 14C-darolutamide solution, median	1.01 h
Cc1ccc([C@@H]2O[C@H](CO)[C@@H](O)[C@H](O)[C@H]2O)cc1Cc1ccc(-c2ccc(F)cc2)s1	–	human, maintenance hemodialysis patients	oral, 300 mg once daily, steady state, median	1.5 h
O=C(COc1ccc(Cl)cc1)NC12CC(c3nnc([C@H]4C[C@@H](OC(F)(F)F)C4)o3)(C1)C2	–	healthy human both sexes, plasma	oral, 200 mg once daily, day 1, median fasted	23.8 h
CNC(=O)n1ccc2cc(Oc3ccnc(NC(=O)c4ccc(C5CCN(CCO)CC5)cc4)c3)c(OCCOC)cc21	–	healthy human, plasma	oral, 35 mg, high-fat meal, median	4 h
COc1cc(N2CCC(N3CCN(C)CC3)CC2)ccc1Nc1ncnc(Nc2ccccc2S(=O)(=O)C(C)C)n1	–	human, plasma	oral, 50 mg, day 1	2.12 h
COc1ccc(F)cc1C(=O)NCc1ccc(-c2nn([C@@H](C)C(F)(F)F)c(N)c2C(N)=O)cc1	–	human, plasma	oral, 200 mg once daily, together with: oral repaglinide	1 h
Cc1cc(Nc2ccc(S(F)(F)(F)(F)F)cc2)n2nc(C(C)(F)F)nc2n1	LC-MS/MS	human vivax malaria patients, plasma	oral, 400 mg, median	6 h

Repeated from above:
SMILES	test	test system	setting	tmax
N#Cc1ccc2c(c1)[C@H]1CCCN(C(=O)c3ccc4[nH]cnc4c3)[C@H]1C2	–	human, plasma	oral, 80 mg once daily, after first dose, median	1 h
